# Published values of several laboratories.
# Numbered parts are unrelated; each lists some results of a single study.

# Set 1
# SMILES: COc1ccc(-c2c(Nc3ccccn3)[nH]c3c(C4=CCCCC4)c(-c4ccccc4)nn3c2=O)cc1
# Medium: plasma
# Route: oral
method,host,dose,time,setting,"plasma concentration, median"
,human patients,400 mg once daily,24 h,cycle 1,1210 ng/mL
LC-MS/MS,human,200 mg twice daily,0.5 h,,10700 ng/mL
,human patients,150 mg once daily,8 h,cycle 1,3970 ng/mL
,human patients,400 mg once daily,6 h,cycle 1,2270 ng/mL
,human patients,150 mg once daily,24 h,cycle 1,3320 ng/mL
LC-MS/MS,human,200 mg twice daily,2 h,,12800 ng/mL
LC-MS/MS,human,200 mg twice daily,24 h,,10400 ng/mL
,human patients,100 mg once daily,8 h,cycle 1,4680 ng/mL
LC-MS/MS,human,50 mg once daily,0 h,cycle 1,1170 ng/mL
,human patients,400 mg once daily,3 h,cycle 1,2730 ng/mL

# Set 2
# Target: Histamine H3 receptor (HRH3, Homo sapiens, UniProt Q9Y5N1)
# UniProt Q9Y5N1, sequence (whole entry, looked up): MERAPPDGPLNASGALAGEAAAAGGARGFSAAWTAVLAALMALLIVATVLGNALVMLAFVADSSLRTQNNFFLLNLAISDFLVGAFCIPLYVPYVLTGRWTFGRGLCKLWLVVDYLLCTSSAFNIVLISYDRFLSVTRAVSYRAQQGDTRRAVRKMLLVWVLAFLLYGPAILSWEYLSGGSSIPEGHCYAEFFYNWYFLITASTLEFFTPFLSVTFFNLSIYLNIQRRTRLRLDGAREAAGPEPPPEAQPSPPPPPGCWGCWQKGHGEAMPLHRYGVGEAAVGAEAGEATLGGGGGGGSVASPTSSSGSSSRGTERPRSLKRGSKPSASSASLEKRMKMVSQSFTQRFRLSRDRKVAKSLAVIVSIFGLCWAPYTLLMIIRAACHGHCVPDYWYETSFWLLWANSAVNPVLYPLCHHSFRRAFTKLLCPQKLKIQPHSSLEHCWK
# Read-out: binding
# Method: radioligand binding
# Concentration: 10 µM
Compound,inhibition
CC1=C(C#N)C(c2ccc3c(c2)c(NC(=O)c2ccccc2C)nn3C)C(C#N)=C(C)N1,1.89%
O=C(Nc1cccnn1)N1CC(CC=Cc2cncc(Oc3ccc(C(F)(F)F)cn3)n2)C1,17.3%
COc1cc(-c2cn(C3CCc4ccccc4N(CC(F)(F)F)C3=O)nn2)ccc1-n1ccc(C)n1 (stereo not shown),20.9%
Cc1cc(-n2nc(Cc3cc(F)cc(C(F)(F)F)c3)nc2C)ccc1C(N)=O,11.4%
CC(=O)Nc1nc(CN2CCC[C@H](Cc3cc(C)nc(C)c3)C2)cs1,27.1%
CC(=O)N1CCC(c2ccc(C(=O)NC(=N)N)cc2C(F)(F)F)CC1,-6.54%
Cc1nc(N2CC[C@@H](O)C2)ncc1-c1cc(C(F)(F)F)cc2[nH]ncc12,28.6%
Cc1c(N2CCCC2)nc2ccc(Br)cc2c1C(=O)NC[C@H](CCC(=O)O)c1ccccc1Cl,-15.7%
O=C(NC[C@@H]1[C@H]2CN(C(=O)OCc3cc(C(F)(F)F)cc(C(F)(F)F)c3)C[C@@H]12)c1ccc2[nH]nnc2c1,-5.26%
COc1cccc(CNC(=O)c2nc3scc(COCc4ccc(C(=O)O)cc4)c3c(=O)[nH]2)c1,-9.59%
O=C(Nc1ccc(-n2nc(-c3cccnc3)cc2C(F)(F)F)cn1)c1ccc(-c2ccccc2)c(F)c1,-1.54%
CS(=O)(=O)NCC[C@H](NC(=O)c1cncc2c1cnn2-c1ccc(F)cc1)c1ccnc(S(C)(=O)=O)c1,18.9%
Cc1nc(Cc2cccc(C(F)(F)F)c2)sc1-c1ccc(C(N)=O)nc1,3.48%
CNC(=O)c1ccc(Nc2ncc(C(F)(F)F)c(NCc3nccnc3N(C)S(C)(=O)=O)n2)cc1,-7.94%
O=C1CCc2cc(Nc3cc(OC4CCOCC4)c([N+](=O)[O-])cc3Cl)ccc2N1,15.1%
CNC(=O)Nc1ccc2c(c1)[C@]1(CC2)OC(=O)N(CC(=O)N(Cc2ccc(F)cc2)[C@@H](C)C(F)(F)F)C1=O,13.2%
O[C@]1(C(F)(F)F)CCCC[C@H]1Nc1ccc(F)cc1,-12.8%
Cc1cc(C)c(-n2ccn3nc(-c4cccnc4)cc23)cc1NC(=O)c1cc(C#N)cc(S(F)(F)(F)(F)F)c1,-5.88%
CN1C(=O)[C@@H](N2CCc3cn(Cc4ccccc4)nc3C2=O)COc2ccccc21,-19.6%
C[C@H](NC(=O)c1cnc2n1[C@](C)(Cc1ccc(C#N)cc1)C(=O)N2c1cc(Cl)c(F)c(Cl)c1)C(=O)NC1(c2ccccn2)CC1,1.43%
COc1nc2ccc([C@@](O)(c3ccccc3)C3CCN(C(C)=O)CC3)cc2c(Cl)c1Cc1ccc(-n2cccn2)cc1,0.46%

# Set 3
# Target: Beta-1 adrenergic receptor (ADRB1, Homo sapiens, UniProt P08588)
# UniProt P08588, sequence (whole entry, looked up): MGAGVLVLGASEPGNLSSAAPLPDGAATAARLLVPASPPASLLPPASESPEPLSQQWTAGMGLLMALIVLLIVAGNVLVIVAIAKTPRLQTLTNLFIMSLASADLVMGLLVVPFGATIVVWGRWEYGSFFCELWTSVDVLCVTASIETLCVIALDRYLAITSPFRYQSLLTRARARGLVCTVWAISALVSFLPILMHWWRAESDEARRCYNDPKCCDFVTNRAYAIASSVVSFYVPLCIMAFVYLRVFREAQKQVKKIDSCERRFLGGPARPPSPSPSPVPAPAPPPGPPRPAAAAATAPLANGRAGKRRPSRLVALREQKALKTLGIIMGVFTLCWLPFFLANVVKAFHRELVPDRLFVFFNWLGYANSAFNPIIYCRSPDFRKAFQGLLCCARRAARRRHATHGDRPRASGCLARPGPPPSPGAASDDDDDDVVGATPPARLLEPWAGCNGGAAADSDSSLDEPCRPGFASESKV
# Mode: antagonist
SMILES,IC50
COc1ccccc1N1CCN([C@@H]2[C@H](O)[C@H](CO)O[C@@H]2CN(Cc2ccc(F)cc2)Cc2ccc(F)cc2)CC1,31.6 µM
COc1ccccc1N1CCN(C(=O)c2cc(Br)cn2C(C)C)CC1,≥ 100 µM
N#Cc1ccccc1CN1CCNc2nc(CNCc3ccccc3)n(Cc3ccccc3)c2C1=O,≥ 100 µM
c1ccc(-c2n[nH]c3ncc(-c4cn[nH]c4)nc23)cc1,≥ 100 µM
CC(=O)Oc1ccc2c(C)cc(=O)oc2c1,≥ 100 µM
O=C1COCC2(CN(c3cnccn3)C2)CN1c1cccnc1,≥ 100 µM
O=C(Cc1ccccc1)Nc1ccc([C@@H](O)[C@H]2COCC(=O)N2Cc2ccc(C(F)(F)F)cc2)cc1,≥ 100 µM
O=C(Nc1ccc([C@@H](O)[C@H]2COCC(=O)N2Cc2ccc(F)cc2)cc1)c1cccs1,≥ 100 µM
Cc1nn(CC(=O)NCc2ccc(N(C)C)cc2)c(=O)c2nc(C(C)C)sc12,≥ 100 µM
COc1ccccc1NC(=O)c1sc2nc(C)c(C(=O)Nc3ccc(C)cc3C)c(-c3ccc(C)o3)c2c1N,≥ 100 µM

# Set 4
# Target: Serine/threonine-protein kinase 4 (STK4, Homo sapiens, UniProt Q13043)
# Read-out: enzyme activity
# Mode: inhibitor
# Concentration: 0.5 µM
# Baseline: control
# Target sequence (Q13043 1-487): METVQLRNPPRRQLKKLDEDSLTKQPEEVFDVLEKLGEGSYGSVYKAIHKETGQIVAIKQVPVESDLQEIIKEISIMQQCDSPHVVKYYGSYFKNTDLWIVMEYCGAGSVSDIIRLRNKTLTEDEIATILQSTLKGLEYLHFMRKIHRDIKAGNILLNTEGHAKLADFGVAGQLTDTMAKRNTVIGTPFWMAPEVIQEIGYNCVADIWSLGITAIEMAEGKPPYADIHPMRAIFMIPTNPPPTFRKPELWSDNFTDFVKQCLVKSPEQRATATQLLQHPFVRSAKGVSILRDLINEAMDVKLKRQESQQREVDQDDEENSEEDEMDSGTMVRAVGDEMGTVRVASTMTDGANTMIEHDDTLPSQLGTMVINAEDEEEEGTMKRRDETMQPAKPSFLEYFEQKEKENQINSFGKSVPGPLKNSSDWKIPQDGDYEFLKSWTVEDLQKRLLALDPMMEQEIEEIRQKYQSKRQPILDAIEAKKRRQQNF
Compound,remaining activity
Cc1cc(Nc2nc(-c3ccccc3)nc3ccccc23)n[nH]1,58%
Oc1ccc(Nc2nc(-c3ccc(Cl)cc3)cs2)cc1,106%
CC(C)(C)n1nc(Cc2cccc3ccccc23)c2c(N)ncnc21,85.7%
COc1cc(Nc2c(C#N)cnc3cc(OCCCN4CCN(C)CC4)c(OC)cc23)c(Cl)cc1Cl,7.4%
O=C1Cc2c([nH]c3ccc([N+](=O)[O-])cc23)-c2ccccc2N1,52.3%
CC#CC(=O)Nc1cc2c(Nc3ccc(F)c(Cl)c3)ncnc2cn1,98.7%
CC[n+]1c(/C=C/N(C)c2ccccc2)n(-c2ccccc2)c2ccc(-c3nc4ccccc4s3)cc21,98.3%
Nc1nccc(-c2c(-c3ccc(F)cc3)ncn2C2CCNCC2)n1,103%

# A few entries again (set 1):
method,host,dose,time,setting,"plasma concentration, median"
,human patients,400 mg once daily,3 h,cycle 1,2730 ng/mL
,human patients,100 mg once daily,8 h,cycle 1,4680 ng/mL
LC-MS/MS,human,200 mg twice daily,24 h,,10400 ng/mL
LC-MS/MS,human,200 mg twice daily,2 h,,12800 ng/mL
,human patients,150 mg once daily,8 h,cycle 1,3970 ng/mL
,human patients,150 mg once daily,24 h,cycle 1,3320 ng/mL
LC-MS/MS,human,200 mg twice daily,0.5 h,,10700 ng/mL
